Measured values from different studies.
Every numbered part comes from another study and shows a few of its results, in no order. Changes are numbered by the printed parent chain.

Set 1 — method: protein binding microarray; molecule type: double-stranded DNA, one strand shown; matrix: in vitro; concentration: not given; baseline: not given; reading: higher = stronger binding; measurement: E-score
Target: Histone acetyltransferase KAT6A, winged helix 1, GST fusion (KAT6A, Homo sapiens, UniProt Q92794, residues 1-85)
Notes: 8-mer, flanks averaged, mean of 2 arrays, mostly near background
Target sequence (chain): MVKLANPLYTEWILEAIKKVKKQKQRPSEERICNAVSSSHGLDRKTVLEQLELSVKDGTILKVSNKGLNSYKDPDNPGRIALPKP
Oligonucleotide = ATTGTCTA; value = -0.0745
Oligonucleotide = AGTTGGAG; value = -0.171
Oligonucleotide = AAGTGCTC; value = -0.163
Oligonucleotide = TAATCAAA; value = -0.143
Oligonucleotide = CAACAATA; value = -0.117
Oligonucleotide = CATAAGAG; value = -0.224
Oligonucleotide = GGTGATGA; value = -0.127
Oligonucleotide = CATTTTCC; value = 0.0113
Oligonucleotide = AACCAGGT; value = -0.236
Oligonucleotide = GATCCATC; value = -0.0828
Oligonucleotide = AACCACGA; value = -0.0856
Oligonucleotide = CAGATTAG; value = -0.163
Oligonucleotide = ATTCAACA; value = -0.106
Oligonucleotide = CAAATTAA; value = -0.114
Oligonucleotide = ATGGTTAA; value = -0.0604
Oligonucleotide = AAATTTGG; value = -0.354

Set 2 — method: RNA Bind-n-Seq; molecule type: RNA; matrix: in vitro; concentration: 200 nM; notes: whole 134-nt RNA, ends assumed; added: 150 mM KCl; baseline: input library; reading: higher = stronger binding; measurement: log2 enrichment
Target: Fragile X messenger ribonucleoprotein 1, C-terminal low-complexity region (Fmr1, Mus musculus, UniProt P35922)
All sequences stand within: GGGAGUUCUACAGUCCGACGAUC … UGGAAUUCUCGGGUGUCAAGG
Oligonucleotide = UGGCCCUGGUGGCAUGCGGGGAGGAAGAGGUGGCCUCAUGGAUCGUGGUGGUCCCGGUGGAAUGUUCAGAGGUGGCCGUGAUGGAGACAG; value = -0.0972
Oligonucleotide = AGUCCUGUGCUACACAUCGUAUGUACCGAAUCGGGGAAAGGGGUGGGGUUUUUGGGGAAAGUAUUAUGUUACGCCGUUCGGAUCUGCACU; value = 1.02
Oligonucleotide = AGUCCUGUGCUACACAUCGUAUGUACCGAAUCAAAUUUAAAUUUUUAAAUUUUUAAAAAAGUAUUAUGUUACGCCGUUCGGAUCUGCACU; value = -1.39
Oligonucleotide = GUCCUGUGCUACACAUCGUAUGUACCGAAUCGGGAAAAAGGGAAAAAAAGGGUUUGGGAAAGUAUUAUGUUACGCCGUUCGGAUCUGCAC; value = -0.318
Oligonucleotide = CACAGACAACACGCACCCACACAGACACAGAGGGAAGGGGUUGGGAUGGGGACAGGGUGCACAGCAGGGCGGGGUAGGACCCGAGCCCCU; value = 1.21
Oligonucleotide = CUCAAGUCCUGUGCUACACAUCGUAUGUACCGAAUCGGGGCCGGGCCGGCCGGAAAGUAUUAUGUUACGCCGUUCGGAUCUGCACUUCCA; value = -0.122
Oligonucleotide = AGUCCUGUGCUACACAUCGUAUGUACCGAAUCGGGUUUUUGGUUUUUGGUUUUUGGGAAAGUAUUAUGUUACGCCGUUCGGAUCUGCACU; value = -0.8
Oligonucleotide = GUCCUGUGCUACACAUCGUAUGUACCGAAUCGGGAAAAAGGGGAAAAAGGGGAAAAAGGAAAGUAUUAUGUUACGCCGUUCGGAUCUGCA; value = -0.199
Oligonucleotide = AAGUCCUGUGCUACACAUCGUAUGUACCGAAUCAAACCCAAAUUUUUAAAUUUAAAAAAGUAUUAUGUUACGCCGUUCGGAUCUGCACUU; value = 0.196
Oligonucleotide = CAAGUCCUGUGCUACACAUCGUAUGUACCGAAUCGGUUUUUUUGGUUUUUGGAGGAAAGUAUUAUGUUACGCCGUUCGGAUCUGCACUUC; value = -0.607
Oligonucleotide = CUCAAGUCCUGUGCUACACAUCGUAUGUACCGAAUCGGGGUUGGUUGGUUGGGGAAAGUAUUAUGUUACGCCGUUCGGAUCUGCACUUCC; value = 0.24
Oligonucleotide = CCUGUGCUACACAUCGUAUGUACCGAAUCGGGGAAAAAAAGGGGUUUUUGGGGAAAGGGGAAAGUAUUAUGUUACGCCGUUCGGAUCUGC; value = 0.378
Oligonucleotide = CCUCAAGUCCUGUGCUACACAUCGUAUGUACCGAAUCGGUUUGGAGGUUUGGAAAGUAUUAUGUUACGCCGUUCGGAUCUGCACUUCCAG; value = -0.13

Set 3 — method: DHFR PCA, deep sequencing; matrix: yeast; added: (+)-ABA 0.0091 µM; baseline: wild-type fitted maximum; reading: higher = stronger binding; measurement: relative binding score
Target: ABI1, truncated, D143A, DHFR fusion (Arabidopsis thaliana)
Notes: methotrexate growth selection, single substitutions
Parent: PYL1, truncated, DHFR fusion (Arabidopsis thaliana); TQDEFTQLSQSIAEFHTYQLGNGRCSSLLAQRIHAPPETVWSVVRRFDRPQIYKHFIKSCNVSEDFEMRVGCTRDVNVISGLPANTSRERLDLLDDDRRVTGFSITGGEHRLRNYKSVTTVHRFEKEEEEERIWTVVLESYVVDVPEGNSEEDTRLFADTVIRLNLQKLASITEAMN
Change = L93T; value = -0.34%
Change = S42R; value = 9.36%
Change = L166K; value = -1.6%
Change = Q31T; value = 2.27%
Change = I133E; value = 59.2%
Change = Y141A; value = 0.799%
Change = S26E; value = -2.04%
Change = T173L; value = -3.33%
Change = S80M; value = 44.7%
Change = V137N; value = -0.777%
Change = Q10T; value = 24.5%
Change = E147T; value = 8.43%
Change = S59V; value = 0.139%
Change = F47R; value = -1.97%
Change = V118P; value = 1.72%
Change = I79T; value = 25.2%
Change = Y18I; value = -4.48%
Change = F5V; value = 19.7%
Change = G71S; value = 2.32%

Set 4 — method: protein-binding microarray; molecule type: double-stranded DNA, one strand shown; matrix: in vitro; concentration: 250 nM; notes: 60-bp whole probe; added: salmon DNA 0.4 mg/ml; baseline: random background probes; reading: higher = stronger binding; measurement: log fluorescence; all sequences stand within: GCCTAGCAC … GTCTTGATTCGCTTGACGCTGCTG
Target: Interferon regulatory factor 5, full length, phosphomimetic (IRF5, Homo sapiens, UniProt Q13568-2, residues 1-514, K96S/S451D/S453D/S456D/S462D)
Oligonucleotide = CTAGATCTCAGTCTCGATTAGTGCTAG; value = 0.614 z-score
Oligonucleotide = TCATCTTTTCTGTTGTCACTGTGCTAG; value = 1.98 z-score
Oligonucleotide = GACGATTTCAGTCTCCAGACGTGCTAG; value = 0.85 z-score
Oligonucleotide = TCATTTCCCACTTTCAGACTGTGCTAG; value = 2.17 z-score
Oligonucleotide = TGTGTTTTCATTTTATGACAGTGCTAG; value = 3.01 z-score
Oligonucleotide = GACGGTTTCGGACTGGAGACGTGCTAG; value = 4.18 z-score
Oligonucleotide = GACGATATCAGTTTCTAGACGTGCTAG; value = 2.57 z-score
Oligonucleotide = TTAGAACTGGACTTTCGGTTAGTGCTA; value = 9.73 z-score
Oligonucleotide = GACGATCTCAGACTGGAGAGGTGCTAG; value = -0.123 z-score
Oligonucleotide = TTTGGACTGGACTATCGGTTAGTGCTA; value = 5.77 z-score
Oligonucleotide = TTAGGACTGGGTATCGGTTTGTGCTAG; value = 3.47 z-score

Set 5 — method: RNA Bind-n-Seq; molecule type: RNA; matrix: in vitro; concentration: 365 nM; baseline: no-protein control; reading: higher = stronger binding; measurement: RBNS enrichment (R)
Target: RNA binding protein fox-1 homolog 2, RRM domain, GST-SBP tag (RBFOX2, Homo sapiens, UniProt O43251-10, residues 100-194)
Notes: natural RNA segment, single round, ends assumed
All sequences stand within: GGGAGUUCUACAGUCCGACGAUC … UGGAAUUCUCGGGUGCCAA
Construct (chain): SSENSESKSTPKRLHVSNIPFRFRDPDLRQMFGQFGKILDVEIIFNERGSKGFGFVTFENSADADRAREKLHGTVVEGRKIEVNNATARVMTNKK
Oligonucleotide = AUAGCACUAAUUUUUAUUUGUGGUAUUUUUCUAUAACAAAACAAGUAGCUCUAGGAAAAGAGGUUUUAUUUUGUAAACGAUCAUUUGUGACCUCAGACACUCUCUGGCUA; value = 0.32
Oligonucleotide = UGACACUCACAGGGAGCCACUGUUCACUGACACUUGGAAGCGGUCAUUGUUAAUAUCACGGGCGUAACACUUUGAACGAUAUAGAGAUGCACAAACAGUUGAACUUAGAA; value = 0.646
Oligonucleotide = ACAUGAGGCCAGGAGGAUAAUUAACUUGAGGAAUAGACAACUUACAUUCACUACAUAUUUAAUCAUGCUUAAAAUGUUUGUAUUUACUGCCAUGCAAUUGAUAUAGUAAA; value = 0.539
Oligonucleotide = ACAUUUGGCCAUAUUGGUGCUGCUGUACCAUAGUGUAGACUUUUACAGCUGUGAGGGUGGCUAUUGAGUUCCUUCCAGUGUCUCAAGUCACAGGUGUGUGCAGUUGUGAA; value = 0.429
Oligonucleotide = AAAAGGAUUCAAACGCAACUCAAAUCUGUGCUGGACUUUUGAAAAACCACAAUUCAGGACCAAAUUUUUUCUCCGUGUGUGUUUAUUCCUUAUAGGUGUAAUUGAGAAGA; value = 0.516
Oligonucleotide = GGUAUGUUGCGGGGUAUUAAGCAGGAAACCACUGUGUGGUGGGGGGCACUGGGCUUGUUGGGGCCAGAAAUGUCCACGUCCUGAGCUUUCUCCUGGAGCAUGUGCAGAGA; value = 1.62
Oligonucleotide = GGCACUUGUCUACAAGUGUGUCCCAACACAGUCCUGGGCCACUUUCCCCACCCUGGGGAGCACAUAAAGAAGCUUGCCAAGGGGGGCGUCCUUGCUCCCCAGUUGUCCUG; value = 0.257
Oligonucleotide = UUGAUUUCAGAAAUCAGUACCUGGCGAGAUUUUUGUCUCAAAACGACUAUUUGAAUUUCAAGAACUGUGCUGCGAAGACACUCUGAGAACAUUUGCAAGUCAGGGGCAUU; value = 0.452
Oligonucleotide = GCUUACGUGGCCUGCUGUCCUCUGUGUGAUUAGGAGGGUUUCUGCUGGCCCUGCAGCUUGCUUCCCUGCGGAUUAGGCCUUUGCUCAUGCUAUAGCCUUCAUGUGGGUGC; value = 0.686
Oligonucleotide = UGUGUGCUCAUUCUUAGAGUGAAGACCCUGAAAGGUAUCCCUUUGCAGCCUGUCUCCUGUUUUGAGCCCUUUAGGGGUAACUCAUUUGUAAAACCACCAGCCUGAGCUCA; value = 0.272
Oligonucleotide = UCCUAUUGCUUCCUUGCGCAACUUCUCAAAACGAUGAAAGUCAGAAGGCUGUCAAACUCAAAUAUCUUUGCAAACAGUUUGAAUACUGUGAAUUCAUUACGAAGAAUGUU; value = 0.452
Oligonucleotide = AAACACAUGCUUUUGUAUCUUGUCAUAGUUAUCCACAAAUGGCAAAACUGGACUUGAUUCUACUGGUAUGCAAAACAGGCAUGCUAGUAAGCAGUCAGUCGUGGCUCAGA; value = 0.204

For quick reference, copied from above (set 1):
Oligonucleotide = AGTTGGAG; value = -0.171
Oligonucleotide = AAGTGCTC; value = -0.163
Oligonucleotide = TAATCAAA; value = -0.143
Oligonucleotide = CAACAATA; value = -0.117
Oligonucleotide = CATAAGAG; value = -0.224
Oligonucleotide = GGTGATGA; value = -0.127
Oligonucleotide = CATTTTCC; value = 0.0113
Oligonucleotide = AACCAGGT; value = -0.236
Oligonucleotide = GATCCATC; value = -0.0828
